Experimental data of several laboratories.
Lines come from different studies, so protocols differ. Numbers after ± are the reported error.
NPY4R: Neuropeptide Y receptor type 4 (NPY4R, Homo sapiens, UniProt P50391)
Sequence of UniProt P50391 (whole entry, looked up): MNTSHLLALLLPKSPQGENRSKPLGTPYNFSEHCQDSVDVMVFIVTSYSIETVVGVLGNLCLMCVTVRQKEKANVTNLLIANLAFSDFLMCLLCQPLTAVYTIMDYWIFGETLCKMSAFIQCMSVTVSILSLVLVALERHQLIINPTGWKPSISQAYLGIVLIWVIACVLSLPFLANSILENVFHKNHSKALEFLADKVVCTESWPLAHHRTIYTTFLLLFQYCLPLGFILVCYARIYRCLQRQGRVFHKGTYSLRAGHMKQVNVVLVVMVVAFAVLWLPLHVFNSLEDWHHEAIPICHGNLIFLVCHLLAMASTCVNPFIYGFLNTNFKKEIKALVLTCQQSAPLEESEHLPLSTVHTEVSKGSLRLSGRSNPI
sdiA: Regulatory protein SdiA (sdiA, Escherichia coli, UniProt P07026)
Sequence of UniProt P07026 (whole entry, looked up): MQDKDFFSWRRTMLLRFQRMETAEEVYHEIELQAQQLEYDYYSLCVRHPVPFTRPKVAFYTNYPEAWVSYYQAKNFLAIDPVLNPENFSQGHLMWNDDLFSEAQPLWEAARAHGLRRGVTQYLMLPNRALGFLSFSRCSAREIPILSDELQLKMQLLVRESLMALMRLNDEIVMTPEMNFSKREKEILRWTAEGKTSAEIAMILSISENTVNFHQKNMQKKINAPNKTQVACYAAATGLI
ADCYAP1R1 del89-109: Pituitary adenylate cyclase-activating polypeptide type I receptor (ADCYAP1R1, Homo sapiens, UniProt P41586, del89-109)
Sequence of UniProt P41586 (whole entry, unmodified, looked up): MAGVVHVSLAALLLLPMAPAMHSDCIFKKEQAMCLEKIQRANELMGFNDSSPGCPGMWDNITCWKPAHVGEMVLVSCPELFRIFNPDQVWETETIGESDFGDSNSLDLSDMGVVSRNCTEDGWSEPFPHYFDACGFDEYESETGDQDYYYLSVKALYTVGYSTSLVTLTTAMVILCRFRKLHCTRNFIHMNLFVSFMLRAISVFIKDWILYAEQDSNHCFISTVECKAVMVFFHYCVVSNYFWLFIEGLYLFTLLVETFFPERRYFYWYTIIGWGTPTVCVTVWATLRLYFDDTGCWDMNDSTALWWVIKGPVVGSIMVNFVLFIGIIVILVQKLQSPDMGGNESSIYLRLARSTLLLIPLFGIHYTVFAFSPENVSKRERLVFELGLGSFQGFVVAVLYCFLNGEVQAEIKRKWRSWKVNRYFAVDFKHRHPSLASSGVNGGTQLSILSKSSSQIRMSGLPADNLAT
Sequence of UniProt P53350 (whole entry, looked up): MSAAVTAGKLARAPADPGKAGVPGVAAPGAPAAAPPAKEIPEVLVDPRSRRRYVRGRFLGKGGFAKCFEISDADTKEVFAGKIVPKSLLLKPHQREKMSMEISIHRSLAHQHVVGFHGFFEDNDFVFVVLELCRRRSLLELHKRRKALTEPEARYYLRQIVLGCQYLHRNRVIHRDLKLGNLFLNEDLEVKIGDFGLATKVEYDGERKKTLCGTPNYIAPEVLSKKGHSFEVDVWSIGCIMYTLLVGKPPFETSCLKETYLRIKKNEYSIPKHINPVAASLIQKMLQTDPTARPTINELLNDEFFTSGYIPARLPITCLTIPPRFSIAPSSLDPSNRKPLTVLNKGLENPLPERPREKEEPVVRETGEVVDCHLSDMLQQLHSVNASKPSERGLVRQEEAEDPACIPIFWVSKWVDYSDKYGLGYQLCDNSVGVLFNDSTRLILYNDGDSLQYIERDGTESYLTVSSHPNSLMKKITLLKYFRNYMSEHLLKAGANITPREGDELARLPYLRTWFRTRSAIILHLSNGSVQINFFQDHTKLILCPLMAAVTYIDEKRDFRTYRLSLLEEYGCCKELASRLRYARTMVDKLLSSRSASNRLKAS
Sequence of UniProt O55040 (whole entry, looked up): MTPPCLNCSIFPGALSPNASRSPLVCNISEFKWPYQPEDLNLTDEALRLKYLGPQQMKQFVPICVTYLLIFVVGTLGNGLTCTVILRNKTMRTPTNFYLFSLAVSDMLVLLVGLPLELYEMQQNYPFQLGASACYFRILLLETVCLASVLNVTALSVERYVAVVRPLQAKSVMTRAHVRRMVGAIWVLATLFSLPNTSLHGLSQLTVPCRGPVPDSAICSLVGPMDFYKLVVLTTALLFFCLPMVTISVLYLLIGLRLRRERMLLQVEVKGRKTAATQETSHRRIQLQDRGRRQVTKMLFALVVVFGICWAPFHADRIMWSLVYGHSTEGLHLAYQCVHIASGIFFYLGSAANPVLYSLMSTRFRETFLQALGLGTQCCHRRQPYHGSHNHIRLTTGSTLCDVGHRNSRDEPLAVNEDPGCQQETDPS
Sequence of UniProt Q16853 (whole entry, looked up): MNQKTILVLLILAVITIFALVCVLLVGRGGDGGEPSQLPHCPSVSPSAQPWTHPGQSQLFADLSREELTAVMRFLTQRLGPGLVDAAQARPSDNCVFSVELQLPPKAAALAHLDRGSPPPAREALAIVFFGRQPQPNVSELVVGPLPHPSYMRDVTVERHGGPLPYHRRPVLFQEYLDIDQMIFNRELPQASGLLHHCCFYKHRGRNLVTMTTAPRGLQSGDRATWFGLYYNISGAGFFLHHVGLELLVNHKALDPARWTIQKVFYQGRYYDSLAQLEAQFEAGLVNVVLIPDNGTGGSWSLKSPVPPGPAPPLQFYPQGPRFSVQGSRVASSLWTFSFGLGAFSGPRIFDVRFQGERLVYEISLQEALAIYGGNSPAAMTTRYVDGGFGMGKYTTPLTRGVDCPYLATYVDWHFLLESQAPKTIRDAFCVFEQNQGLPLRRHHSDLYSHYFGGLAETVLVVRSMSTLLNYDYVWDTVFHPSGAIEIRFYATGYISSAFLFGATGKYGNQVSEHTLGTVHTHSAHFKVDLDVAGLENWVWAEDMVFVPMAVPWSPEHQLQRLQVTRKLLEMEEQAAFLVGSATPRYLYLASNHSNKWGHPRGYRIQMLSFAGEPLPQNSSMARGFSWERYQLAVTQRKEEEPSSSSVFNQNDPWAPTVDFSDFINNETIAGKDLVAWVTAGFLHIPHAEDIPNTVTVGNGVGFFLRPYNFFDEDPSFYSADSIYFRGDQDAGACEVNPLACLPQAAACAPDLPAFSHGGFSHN
Sequence of UniProt Q9UK32 (whole entry, looked up): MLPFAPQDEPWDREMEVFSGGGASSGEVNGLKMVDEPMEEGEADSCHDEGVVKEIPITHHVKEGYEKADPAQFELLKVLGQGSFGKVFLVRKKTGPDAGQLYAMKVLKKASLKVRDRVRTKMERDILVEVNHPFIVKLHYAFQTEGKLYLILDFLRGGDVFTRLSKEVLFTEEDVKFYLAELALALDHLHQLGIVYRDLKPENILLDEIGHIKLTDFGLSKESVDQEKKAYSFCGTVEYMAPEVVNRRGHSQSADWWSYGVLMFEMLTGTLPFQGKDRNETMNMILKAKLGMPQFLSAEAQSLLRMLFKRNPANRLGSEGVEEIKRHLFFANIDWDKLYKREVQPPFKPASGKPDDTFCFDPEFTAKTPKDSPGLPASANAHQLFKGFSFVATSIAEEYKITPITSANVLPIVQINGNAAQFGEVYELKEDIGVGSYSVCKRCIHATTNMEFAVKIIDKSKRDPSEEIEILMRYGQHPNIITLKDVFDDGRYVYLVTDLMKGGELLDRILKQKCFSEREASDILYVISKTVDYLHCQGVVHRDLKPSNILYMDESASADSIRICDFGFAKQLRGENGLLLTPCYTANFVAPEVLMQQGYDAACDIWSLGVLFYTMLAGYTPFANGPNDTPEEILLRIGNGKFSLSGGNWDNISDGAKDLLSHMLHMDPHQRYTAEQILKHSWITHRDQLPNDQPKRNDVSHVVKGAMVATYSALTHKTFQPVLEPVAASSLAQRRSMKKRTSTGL

CC(=O)N[C@@H](CCCNC(=N)N)C(=O)N[C@@H](Cc1ccc(O)cc1)C(=O)N[C@@H](CCCNC(=N)N)C(=O)N[C@@H](CC(C)C)C(=O)N[C@@H](CCCNC(=N)NC(=O)NCCCCN)C(=O)N[C@@H](Cc1ccc(O)cc1)C(N)=O — Kb (NPY4R; β-arrestin-2 recruitment, antagonist; HEK293T-ARRB2; with: 3 nM human pancreatic polypeptide): 3840 ± 55 nM
CCCCCC(=O)N[C@H]1CCSC1=O — EC50 (sdiA): 1.1 nM
O=C(N[C@@H]1c2ccccc2C[C@H]1N1CCCC1)c1ccc(-c2ccnc3[nH]ccc23)nc1 — Kd (Ribosomal protein S6 kinase alpha-6, N-terminal kinase domain (RPS6KA6, Homo sapiens, UniProt Q9UK32); binding, competition with immobilised ligand): 1010 nM
O=C(Cc1ccc(Br)cc1)N[C@H]1CCSC1=O — EC50 (sdiA): 6.41 nM
CSCC[C@H](NC(=O)[C@H](CCC(N)=O)NC(=O)[C@H](CCCCN)NC(=O)[C@H](CCCNC(=N)N)NC(=O)[C@H](Cc1ccc(O)cc1)NC(=O)[C@H](CCCNC(=N)N)NC(=O)[C@H](CO)NC(=O)[C@H](Cc1ccc(O)cc1)NC(=O)[C@H](CO)NC(=O)[C@H](CC(=O)O)NC(=O)[C@@H](NC(=O)[C@@H](N)Cc1ccccc1)[C@@H](C)O)C(=O)N[C@@H](C)C(=O)N[C@H](C(=O)N[C@@H](CCCCN)C(=O)N[C@@H](CCCCN)C(=O)N[C@@H](Cc1ccc(O)cc1)C(=O)N[C@@H](CC(C)C)C(=O)N[C@@H](C)C(=O)N[C@@H](C)C(=O)N[C@H](C(=O)N[C@@H](CC(C)C)C(=O)NCC(=O)N[C@@H](CCCCN)C(=O)N[C@@H](CCCNC(=N)N)C(=O)N[C@@H](Cc1ccc(O)cc1)C(=O)N[C@@H](CCCCN)C(=O)N[C@@H](CCC(N)=O)C(=O)N[C@@H](CCCNC(=N)N)C(=O)N[C@H](C(=O)N[C@@H](CCCCN)C(=O)N[C@@H](CC(N)=O)C(=O)N[C@@H](CCCCn1cc(C[C@H](NC(=O)CNC(=O)[C@H](CO)NC(=O)[C@H](CCCNC(=N)N)NC(=O)[C@H](CO)NC(=O)[C@H](CC(C)C)NC(=O)[C@H](CC(C)C)NC(=O)CNC(=O)[C@H](C)NC(=O)[C@H](CC(C)C)NC(=O)[C@H](CCCNC(=N)N)NC(=O)[C@H](Cc2c[nH]cn2)NC(=O)[C@@H](NC(=O)[C@@H](N)C(C)C)[C@@H](C)O)C(=O)N[C@H](C(=O)N[C@H](C(=O)N[C@@H](CCCCN)C(=O)N[C@@H](CC(N)=O)C(=O)N[C@@H](CC(N)=O)C(=O)N[C@@H](Cc2ccccc2)C(=O)N[C@H](C(=O)N2CCC[C@H]2C(=O)N[C@H](C(=O)N[C@@H](CC(N)=O)C(=O)N[C@H](C(=O)NCC(=O)N[C@@H](CO)C(=O)N[C@@H](CCCCN)C(=O)N[C@@H](C)C(=O)N[C@@H](Cc2ccccc2)C(N)=O)C(C)C)[C@@H](C)O)C(C)C)C(C)C)C(C)C)nn1)C(N)=O)C(C)C)C(C)C)C(C)C — Kb (ADCYAP1R1 del89-109; cAMP accumulation, antagonist; with: VIP): 14.1 nM
Cc1ccc2c(n1)c(-c1cccc(S(C)(=O)=O)c1)c(C)n2C/C(F)=C/CN — IC50 (AOC3 (Homo sapiens, UniProt Q16853); enzyme activity, inhibitor, fluorescence): > 30000 nM
CC(=O)N[C@@H](CCCNC(=N)N)C(=O)N[C@@H](Cc1ccc(O)cc1)C(=O)N[C@H]1CCCNC(=N)NC(=O)NCCCCNC(=O)[C@H](Cc2ccc(O)cc2)NC(=O)[C@H](CCCNC(=N)N)NC(=O)[C@H](CC(C)C)NC1=O — Kb (NPY4R; β-arrestin-2 recruitment, antagonist; HEK293T-ARRB2; with: 3 nM human pancreatic polypeptide): 1880 ± 320 nM
CC(C)(C)C(=O)OCOP(=O)(OCOC(=O)C(C)(C)C)C1CCCN(O)C1=O (stereo not shown) — log GI50 (T47D): -6.26 log M
CN(C)[C@H]1C[C@@]23CC[C@@]4(O2)C(=CC[C@]2(C)[C@@H](c5ccc6ccncc6c5)CC[C@H]24)C=C3[C@@H](O)[C@@H]1O — inhibition (PLK1 (Homo sapiens, UniProt P53350); ATP probe labelling, inhibitor, KiNativ profiling; 0.1 µM): -8.3%
CCCCCCCCCCCCCCCCCC(=O)NC[C@H]1CC[C@H](C(=O)N[C@@H](CCC(=O)NCCCOCCOCCOCCCNC(=O)COCC(=O)N[C@@H](Cc2ccc(O)cc2)C(=O)NC(C)(Cc2ccccc2)C(=O)N[C@@H](CC(C)C)C(=O)N[C@@H](CCCC)C(=O)N[C@@H](CCCNC(=N)N)C(=O)N2CCC[C@H]2C(=O)N[C@@H](CCCNC(=N)NC)C(=O)N[C@@H](CC(N)=O)C(N)=O)C(=O)O)CC1 (stereo partly shown) — EC50 (Neuromedin-U receptor 1 (Mus musculus, UniProt O55040); inositol phosphate, agonist): > 10000 nM
CSCC[C@H](NC(=O)[C@H](CCC(N)=O)NC(=O)[C@H](CCCCN)NC(=O)[C@H](CCCNC(=N)N)NC(=O)[C@H](Cc1ccc(O)cc1)NC(=O)[C@H](CCCNC(=N)N)NC(=O)[C@H](CO)NC(=O)[C@H](Cc1ccc(O)cc1)NC(=O)[C@H](CO)NC(=O)[C@H](CC(=O)O)NC(=O)[C@@H](NC(=O)[C@@H](N)Cc1ccccc1)[C@@H](C)O)C(=O)N[C@@H](C)C(=O)N[C@H](C(=O)N[C@@H](CCCCN)C(=O)N[C@@H](CCCCn1cc(C[C@H](NC(=O)CNC(=O)[C@H](CO)NC(=O)[C@H](CCCNC(=N)N)NC(=O)[C@H](CO)NC(=O)[C@H](CC(C)C)NC(=O)[C@H](CC(C)C)NC(=O)CNC(=O)[C@H](C)NC(=O)[C@H](CC(C)C)NC(=O)[C@H](CCCNC(=N)N)NC(=O)[C@H](Cc2c[nH]cn2)NC(=O)[C@@H](NC(=O)[C@@H](N)C(C)C)[C@@H](C)O)C(=O)N[C@H](C(=O)N[C@H](C(=O)N[C@@H](CCCCN)C(=O)N[C@@H](CC(N)=O)C(=O)N[C@@H](CC(N)=O)C(=O)N[C@@H](Cc2ccccc2)C(=O)N[C@H](C(=O)N2CCC[C@H]2C(=O)N[C@H](C(=O)N[C@@H](CC(N)=O)C(=O)N[C@H](C(=O)NCC(=O)N[C@@H](CO)C(=O)N[C@@H](CCCCN)C(=O)N[C@@H](C)C(=O)N[C@@H](Cc2ccccc2)C(N)=O)C(C)C)[C@@H](C)O)C(C)C)C(C)C)C(C)C)nn1)C(=O)N[C@@H](Cc1ccc(O)cc1)C(=O)N[C@@H](CC(C)C)C(=O)N[C@@H](C)C(=O)N[C@@H](C)C(=O)N[C@H](C(=O)N[C@@H](CC(C)C)C(=O)NCC(=O)N[C@@H](CCCCN)C(=O)N[C@@H](CCCNC(=N)N)C(=O)N[C@@H](Cc1ccc(O)cc1)C(=O)N[C@@H](CCCCN)C(=O)N[C@@H](CCC(N)=O)C(=O)N[C@@H](CCCNC(=N)N)C(=O)N[C@H](C(=O)N[C@@H](CCCCN)C(=O)N[C@@H](CC(N)=O)C(=O)N[C@@H](CCCCN)C(N)=O)C(C)C)C(C)C)C(C)C — Kb (ADCYAP1R1 del89-109; cAMP accumulation, antagonist; with: VIP): 14.1 nM
COc1ccccc1-c1n[nH]c2nc(NC3CCN(C(=O)Cc4ccc(F)cc4F)CC3)ncc12 — relative abundance (bead binding, competition bead pull-down, measured: LINJ.21.0920; Leishmania donovani extract; 10 µM; relative to: vehicle): 0.87
O=C1NC2(CC2)COc2ncc(F)cc2[C@H]2COCCN2c2ccn3ncc1c3n2 — serum LDH activity (Sprague-Dawley rat, male, serum; oral, 2.5 mg/kg/day, end of treatment, 4-week subacute toxicity): 761 ± 310 U/L

A few entries again:
COc1ccccc1-c1n[nH]c2nc(NC3CCN(C(=O)Cc4ccc(F)cc4F)CC3)ncc12 — relative abundance (bead binding, competition bead pull-down, measured: LINJ.21.0920; Leishmania donovani extract; 10 µM; relative to: vehicle): 0.87
O=C1NC2(CC2)COc2ncc(F)cc2[C@H]2COCCN2c2ccn3ncc1c3n2 — serum LDH activity (Sprague-Dawley rat, male, serum; oral, 2.5 mg/kg/day, end of treatment, 4-week subacute toxicity): 761 ± 310 U/L
